# Assay results gathered from unrelated publications.
# Compare with care: the assays were run in different laboratories. ± gives the spread as reported.
Compound,assay,system,setting,scale,endpoint,value
O=[N+]([O-])c1cccc(S(=O)(=O)NC[C@@H](O)[C@@H]2CCc3cc(F)ccc3O2)c1,,"rat, cotton pellet granuloma","oral, 100 mg/kg, 8 days",,wet granuloma weight,190.9 ± 1.84 mg
COc1ccc(NC(=O)c2ccc(N(C)C(C)=N)cc2)c(C(=O)Nc2ccc(Cl)cn2)c1,,human plasma,,,concentration doubling prothrombin time,0.1 ± 0.2 µM
O=C1/C(=C/c2ccc(O)c(O)c2)Oc2c1c(O)cc1oc3cc(O)c(O)cc3c21,"ABTS scavenging, absorbance",,,,EC50,3.34 mM
CCCC[C@H](NC(=O)[C@@H](NC(=O)[C@H](CC(=O)O)NC(=O)[C@H](CCC(N)=O)NC(=O)[C@H](CC(C)C)NC(=O)[C@H](CC(C)C)NC(=O)[C@H](CCCN)NC(=O)[C@H](CCCNC(=N)N)NC(=O)[C@H](C)NC(=O)[C@H](CO)NC(=O)[C@H](CC(C)C)NC(=O)[C@H](CCC(N)=O)NC(=O)[C@H](CC)NC(=O)[C@H](CC(C)C)NC(=O)[C@@H](NC(=O)[C@H](CCCN)NC(=O)[C@H](CCCNC(=N)N)NC(=O)[C@H](Cc1ccc(O)cc1)NC(=O)[C@H](CO)NC(=O)[C@H](CCC(N)=O)NC(=O)[C@@H](NC(=O)[C@H](Cc1ccccc1)NC(=O)[C@@H](NC(=O)[C@H](C)NC(=O)[C@H](CC(=O)O)NC(=O)[C@@H](C)NC(=O)[C@H](Cc1ccc(O)cc1)NC)[C@@H](C)CC)[C@@H](C)O)C(C)C)[C@@H](C)CC)C(=O)N[C@@H](CC(=O)O)C(=O)N[C@@H](CCCNC(=N)N)C(=O)NCCCCC(N)=O,GH release,"male rat, serum","subcutaneous, dose not given, 15 min",baseline: GHRH(1-29)NH2,relative potency,92.7
COC1OC(C)C(OC2OC(C)C(O)C(OC3OC(C)C(OC4OC(C)C(O)C(OC5OC(C)C(OC6OC(C)C(O)C(OC7OC(C)C(OC8OC(C)C(O)C(OS(=O)(=O)O)C8OS(=O)(=O)O)C(OS(=O)(=O)O)C7OS(=O)(=O)O)C6OS(=O)(=O)O)C(OS(=O)(=O)O)C5OS(=O)(=O)O)C4OS(=O)(=O)O)C(OS(=O)(=O)O)C3OS(=O)(=O)O)C2OS(=O)(=O)O)C(OS(=O)(=O)O)C1OS(=O)(=O)O (stereo not shown),clotting time,human plasma,,,concentration doubling APTT,16.4 µg/mL
CCOc1ccc(C(=O)N2c3ccc(F)cc3[C@@H](Nc3ccccc3)C[C@H]2C)cc1,,Aedes albopictus second-instar larvae,1 µM,,logit mortality,-0.05
COc1ccc2c(c1)c(CC(=O)OCOC(C)=O)c(C)n2C(=O)c1ccc(Cl)cc1,hot plate test,BALB/c mice,"100 mg/kg, 90 min",,latency of nociceptive response,17.6 ± 1.13 s
COc1cc(/C=C/c2cc(O)cc(O)c2)ccc1O,,,concentration not given,,initial DPPH scavenging rate,1.77 µmol/L/s
CCCC[C@H](NC(=O)[C@@H](NC(=O)[C@H](CC(=O)O)NC(=O)[C@H](CCC(N)=O)NC(=O)[C@H](CC(C)C)NC(=O)[C@H](CC(C)C)NC(=O)[C@H](CCCN)NC(=O)[C@H](CCCNC(=N)N)NC(=O)[C@H](C)NC(=O)[C@H](CO)NC(=O)[C@H](CC(C)C)NC(=O)[C@H](CCC(N)=O)NC(=O)[C@H](CC)NC(=O)[C@H](CC(C)C)NC(=O)[C@@H](NC(=O)[C@H](CCCN)NC(=O)[C@H](CCCNC(=N)N)NC(=O)[C@H](Cc1ccc(O)cc1)NC(=O)[C@H](CO)NC(=O)[C@H](CCC(N)=O)NC(=O)[C@@H](NC(=O)[C@H](Cc1ccccc1)NC(=O)[C@@H](NC(=O)[C@H](C)NC(=O)[C@H](CC(=O)O)NC(=O)[C@H](C)NC(=O)[C@H](Cc1ccc(O)cc1)NC)[C@@H](C)CC)[C@@H](C)O)C(C)C)[C@@H](C)CC)C(=O)N[C@@H](CC(=O)O)C(=O)NCCCCNC(=N)N,GH release,"rat, male, serum","intravenous, 1 µg/kg, 5 min",baseline: reference GHRH agonist JI-38,relative potency,1.17
BP(=O)(OP(=O)([O-])OC[C@H]1O[C@@H](n2c[n+](C)c3c(O)nc(N)nc32)[C@H](O)[C@@H]1O)OP(=O)(O)OC[C@H]1O[C@@H](n2cnc3c(=O)[nH]c(N)nc32)[C@H](O)[C@@H]1O (stereo partly shown),cap-dependent translation,rabbit reticulocyte lysate,pre-incubated in lysate,baseline: m7GpppG over compound,IC50 ratio,23 fold

# A few entries again:
Compound,assay,system,setting,scale,endpoint,value
COc1cc(/C=C/c2cc(O)cc(O)c2)ccc1O,,,concentration not given,,initial DPPH scavenging rate,1.77 µmol/L/s
